Experimental data of several laboratories.
Lines come from different studies, so protocols differ. ≈ marks a conversion by molar mass, not a printed value.
HLA class I histocompatibility antigen, A alpha chain: HLA class I histocompatibility antigen, A alpha chain (Homo sapiens, UniProt P04439)
4'-phosphopantetheinyl transferase PptT: 4'-phosphopantetheinyl transferase PptT (Mycobacterium tuberculosis, UniProt O33336)
Sequence of UniProt O33336 (whole entry, looked up): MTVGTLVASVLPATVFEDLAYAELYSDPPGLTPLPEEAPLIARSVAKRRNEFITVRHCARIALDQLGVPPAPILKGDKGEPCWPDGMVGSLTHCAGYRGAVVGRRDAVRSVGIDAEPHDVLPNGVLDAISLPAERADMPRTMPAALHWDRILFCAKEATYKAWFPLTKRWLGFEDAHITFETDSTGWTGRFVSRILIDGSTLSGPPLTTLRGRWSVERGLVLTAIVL
Sequence of UniProt P34972 (whole entry, looked up): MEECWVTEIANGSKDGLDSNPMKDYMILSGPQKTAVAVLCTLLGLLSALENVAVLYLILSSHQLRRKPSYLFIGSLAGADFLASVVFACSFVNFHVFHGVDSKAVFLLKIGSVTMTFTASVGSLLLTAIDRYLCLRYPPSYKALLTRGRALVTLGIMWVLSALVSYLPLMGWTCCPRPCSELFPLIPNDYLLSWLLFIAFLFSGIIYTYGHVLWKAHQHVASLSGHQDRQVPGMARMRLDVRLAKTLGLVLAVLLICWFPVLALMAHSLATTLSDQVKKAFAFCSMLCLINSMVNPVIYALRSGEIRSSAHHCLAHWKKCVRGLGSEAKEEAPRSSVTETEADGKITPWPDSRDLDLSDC
Sequence of UniProt Q9Y616 (whole entry, looked up): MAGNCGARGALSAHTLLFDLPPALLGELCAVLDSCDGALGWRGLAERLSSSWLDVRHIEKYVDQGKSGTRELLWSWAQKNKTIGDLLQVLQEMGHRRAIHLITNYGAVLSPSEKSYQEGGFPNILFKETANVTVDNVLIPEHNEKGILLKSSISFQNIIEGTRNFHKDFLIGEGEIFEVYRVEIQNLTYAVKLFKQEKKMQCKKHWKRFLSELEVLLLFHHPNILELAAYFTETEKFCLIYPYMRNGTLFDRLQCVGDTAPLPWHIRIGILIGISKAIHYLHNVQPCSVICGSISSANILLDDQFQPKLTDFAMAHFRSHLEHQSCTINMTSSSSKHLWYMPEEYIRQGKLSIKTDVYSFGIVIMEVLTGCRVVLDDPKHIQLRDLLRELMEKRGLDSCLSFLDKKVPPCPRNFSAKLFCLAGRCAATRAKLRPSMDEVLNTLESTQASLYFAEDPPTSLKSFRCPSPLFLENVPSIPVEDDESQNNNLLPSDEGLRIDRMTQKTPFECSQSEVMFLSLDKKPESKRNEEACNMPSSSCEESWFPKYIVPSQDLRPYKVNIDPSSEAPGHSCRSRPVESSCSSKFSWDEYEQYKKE
Sequence of UniProt Q07869 (whole entry, looked up): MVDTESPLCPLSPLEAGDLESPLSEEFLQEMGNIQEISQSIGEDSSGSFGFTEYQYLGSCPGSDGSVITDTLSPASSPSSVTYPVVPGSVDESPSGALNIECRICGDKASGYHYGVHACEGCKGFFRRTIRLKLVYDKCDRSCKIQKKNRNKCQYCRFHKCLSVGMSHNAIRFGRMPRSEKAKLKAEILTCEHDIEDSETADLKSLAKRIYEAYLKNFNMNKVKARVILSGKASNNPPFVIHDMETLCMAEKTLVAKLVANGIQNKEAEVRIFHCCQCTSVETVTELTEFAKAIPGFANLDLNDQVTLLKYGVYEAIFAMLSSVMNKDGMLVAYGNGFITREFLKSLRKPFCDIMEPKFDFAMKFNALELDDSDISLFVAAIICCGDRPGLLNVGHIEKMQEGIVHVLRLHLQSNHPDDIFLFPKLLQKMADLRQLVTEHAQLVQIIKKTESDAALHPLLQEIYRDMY
Sequence of UniProt Q9NUW8 (whole entry, looked up): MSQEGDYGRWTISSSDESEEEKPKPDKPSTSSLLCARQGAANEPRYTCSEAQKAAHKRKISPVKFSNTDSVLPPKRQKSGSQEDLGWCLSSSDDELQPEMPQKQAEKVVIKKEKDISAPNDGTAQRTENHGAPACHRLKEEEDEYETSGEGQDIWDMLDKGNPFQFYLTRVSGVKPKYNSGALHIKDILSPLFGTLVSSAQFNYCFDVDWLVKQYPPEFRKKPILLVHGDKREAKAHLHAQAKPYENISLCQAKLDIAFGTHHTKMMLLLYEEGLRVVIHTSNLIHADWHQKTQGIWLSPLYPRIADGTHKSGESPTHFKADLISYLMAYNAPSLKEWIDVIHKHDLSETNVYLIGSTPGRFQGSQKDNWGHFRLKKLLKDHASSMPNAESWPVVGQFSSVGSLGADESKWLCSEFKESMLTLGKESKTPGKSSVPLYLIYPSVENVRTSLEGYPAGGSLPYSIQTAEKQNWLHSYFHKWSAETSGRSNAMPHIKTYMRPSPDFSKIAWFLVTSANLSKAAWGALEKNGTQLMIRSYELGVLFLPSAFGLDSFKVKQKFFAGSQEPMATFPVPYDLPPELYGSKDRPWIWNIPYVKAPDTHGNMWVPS
Sequence of UniProt Q07011 (whole entry, looked up): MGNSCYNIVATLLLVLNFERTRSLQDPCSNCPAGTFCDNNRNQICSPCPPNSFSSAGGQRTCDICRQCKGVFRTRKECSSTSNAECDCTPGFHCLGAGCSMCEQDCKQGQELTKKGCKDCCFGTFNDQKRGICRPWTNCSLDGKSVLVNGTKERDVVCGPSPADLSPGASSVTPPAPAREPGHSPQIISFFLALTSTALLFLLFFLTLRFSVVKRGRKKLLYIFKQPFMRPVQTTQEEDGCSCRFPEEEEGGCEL
Sequence of UniProt Q9Y2K2 (whole entry, looked up): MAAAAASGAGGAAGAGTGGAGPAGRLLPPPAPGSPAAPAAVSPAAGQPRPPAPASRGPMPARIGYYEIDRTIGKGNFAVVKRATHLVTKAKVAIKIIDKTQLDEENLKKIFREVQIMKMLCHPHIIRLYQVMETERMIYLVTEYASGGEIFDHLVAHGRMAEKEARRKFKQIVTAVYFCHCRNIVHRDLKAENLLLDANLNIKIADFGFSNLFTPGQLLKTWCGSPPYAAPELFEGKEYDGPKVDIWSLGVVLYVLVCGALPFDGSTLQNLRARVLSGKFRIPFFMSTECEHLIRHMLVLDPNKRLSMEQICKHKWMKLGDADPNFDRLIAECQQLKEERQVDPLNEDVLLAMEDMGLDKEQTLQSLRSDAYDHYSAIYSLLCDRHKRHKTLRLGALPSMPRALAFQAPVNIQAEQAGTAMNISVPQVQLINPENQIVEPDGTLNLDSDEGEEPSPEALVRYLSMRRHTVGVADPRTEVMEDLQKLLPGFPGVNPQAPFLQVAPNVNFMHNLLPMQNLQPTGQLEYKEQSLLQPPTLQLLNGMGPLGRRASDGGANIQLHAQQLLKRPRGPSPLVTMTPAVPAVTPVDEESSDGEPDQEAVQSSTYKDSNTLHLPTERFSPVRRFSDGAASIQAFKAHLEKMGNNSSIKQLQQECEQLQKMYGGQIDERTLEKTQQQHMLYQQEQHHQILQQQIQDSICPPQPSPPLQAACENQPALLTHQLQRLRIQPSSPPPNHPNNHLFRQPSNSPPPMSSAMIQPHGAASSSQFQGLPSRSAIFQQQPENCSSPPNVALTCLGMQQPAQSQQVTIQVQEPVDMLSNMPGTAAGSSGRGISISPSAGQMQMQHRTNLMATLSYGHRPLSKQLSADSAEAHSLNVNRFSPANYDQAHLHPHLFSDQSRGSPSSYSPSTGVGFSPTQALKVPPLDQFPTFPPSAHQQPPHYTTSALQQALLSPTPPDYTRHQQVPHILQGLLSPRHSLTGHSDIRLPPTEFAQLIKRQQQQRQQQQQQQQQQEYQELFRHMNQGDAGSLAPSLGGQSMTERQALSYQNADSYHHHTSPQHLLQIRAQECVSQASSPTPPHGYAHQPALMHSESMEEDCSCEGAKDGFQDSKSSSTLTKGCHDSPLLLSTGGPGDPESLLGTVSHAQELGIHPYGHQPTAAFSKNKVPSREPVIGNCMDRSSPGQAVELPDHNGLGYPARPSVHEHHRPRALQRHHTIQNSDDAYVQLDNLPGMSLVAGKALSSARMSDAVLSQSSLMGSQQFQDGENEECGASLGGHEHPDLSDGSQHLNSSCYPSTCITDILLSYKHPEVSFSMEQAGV
Sequence of UniProt P34975 (whole entry, looked up): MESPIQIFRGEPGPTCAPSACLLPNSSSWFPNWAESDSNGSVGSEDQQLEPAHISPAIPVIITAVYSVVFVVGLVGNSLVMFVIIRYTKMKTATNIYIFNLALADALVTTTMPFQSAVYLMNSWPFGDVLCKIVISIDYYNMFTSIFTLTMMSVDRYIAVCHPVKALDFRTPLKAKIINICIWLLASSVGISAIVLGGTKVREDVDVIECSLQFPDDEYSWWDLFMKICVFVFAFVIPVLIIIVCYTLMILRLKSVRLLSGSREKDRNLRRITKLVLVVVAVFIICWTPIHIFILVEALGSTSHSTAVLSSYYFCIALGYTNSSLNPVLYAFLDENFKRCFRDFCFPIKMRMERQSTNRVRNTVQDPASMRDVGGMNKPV
Sequence of UniProt Q9UQ88 (whole entry, looked up): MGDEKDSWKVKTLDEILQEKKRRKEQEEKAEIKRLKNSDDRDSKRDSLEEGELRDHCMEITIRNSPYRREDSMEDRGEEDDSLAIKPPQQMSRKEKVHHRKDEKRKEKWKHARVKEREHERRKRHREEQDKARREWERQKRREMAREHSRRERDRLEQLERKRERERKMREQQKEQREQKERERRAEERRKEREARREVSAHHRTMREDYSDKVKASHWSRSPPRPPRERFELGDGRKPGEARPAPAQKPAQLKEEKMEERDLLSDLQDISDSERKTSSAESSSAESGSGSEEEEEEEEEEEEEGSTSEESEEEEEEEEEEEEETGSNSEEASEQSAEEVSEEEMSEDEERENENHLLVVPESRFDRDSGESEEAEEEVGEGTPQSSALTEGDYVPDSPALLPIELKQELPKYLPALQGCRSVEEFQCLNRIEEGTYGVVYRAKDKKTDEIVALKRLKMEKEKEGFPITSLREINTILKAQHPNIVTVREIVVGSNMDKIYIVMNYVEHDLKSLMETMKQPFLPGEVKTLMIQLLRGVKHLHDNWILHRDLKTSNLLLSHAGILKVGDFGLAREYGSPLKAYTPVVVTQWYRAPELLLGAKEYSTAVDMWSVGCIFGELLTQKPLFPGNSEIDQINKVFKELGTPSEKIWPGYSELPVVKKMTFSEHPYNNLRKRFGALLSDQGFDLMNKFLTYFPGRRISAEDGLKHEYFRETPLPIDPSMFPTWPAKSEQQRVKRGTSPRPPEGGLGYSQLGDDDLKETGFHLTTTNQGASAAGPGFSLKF

Compound | tested on | assay | test system | setting | quantity | result
C#Cc1ccc2c(c1)C(c1ccccn1)=NCc1c(-c3cnco3)ncn1-2 | – | – | water | 1 h, 37 °C | kinetic solubility | 325 µg/mL (≈ 924 µM)
Cc1nn(C)cc1-c1nc2c(N3CCN(Cc4ccc(Cl)cc4)CC3)c(Cl)cnc2[nH]1 | CDK11A (Homo sapiens, UniProt Q9UQ88) | binding, competition with immobilised ligand | – | 1 µM | remaining binding | 100%
CC(C)C[C@H](NC(=O)[C@@H](NC(=O)[C@H](Cc1c[nH]cn1)NC(=O)[C@H](CC(=O)O)NC(=O)[C@H](CC(N)=O)NC(=O)[C@H](CCC(N)=O)NC(=O)[C@H](C)N)C(C)C)C(=O)N[C@@H](Cc1ccc(O)cc1)C(=O)N[C@@H](Cc1ccc(O)cc1)C(=O)O | HLA class I histocompatibility antigen, A alpha chain | cell-free assay | – | – | IC50 | 0.017 µM
CCCC[C@@H]1NC(=O)[C@H](Cc2ccc(O)cc2)NC(=O)[C@@H]2CCCN2C(=O)[C@H](CC(=O)O)NC(=O)[C@H](C)NC(=O)[C@H](Cc2ccccc2)NC(=O)[C@@H]2CSCCC(=O)N3CN(CN(C3)C(=O)CCSC[C@@H](C(=O)N[C@@H](CNC(=O)CCc3cn(CCOCCOCCOCCOCCOCCOCCOCCOCCOCCOCCOCCOCCOCCOCCOCCOCCOCCOCCOCCOCCOCCOCCOCCNC(=O)N[C@H]4CSCCC(=O)N5CN6CN(C5)C(=O)CCSC[C@H](NC(=O)[C@@H](CC(=O)O)NC(=O)[C@H](Cc5cccc7ccccc57)NC(=O)[C@@H]5CCCN5C4=O)C(=O)N[C@@H](CCSC)C(=O)N[C@@H](CCCCNC(=N)N)C(=O)N[C@@H](CC(=O)O)C(=O)N[C@@H](Cc4c[nH]c5ccccc45)C(=O)N[C@@H](CO)C(=O)N[C@@H]([C@@H](C)O)C(=O)N4CCC[C@H]4C(=O)N4C[C@H](O)C[C@H]4C(=O)N[C@@H](Cc4c[nH]c5ccccc45)C(=O)N[C@H](C(N)=O)CSCCC6=O)nn3)C(N)=O)NC1=O)C(=O)CCSC[C@H](NC(=O)[C@H](C)NC(C)=O)C(=O)N[C@@H]([C@@H](C)CC)C(=O)N[C@@H](CCC(=O)O)C(=O)N[C@@H](CCC(=O)O)C(=O)NCC(=O)N[C@@H](CCC(N)=O)C(=O)N[C@@H](Cc1ccc(O)cc1)C(=O)N2 | Tumor necrosis factor receptor superfamily member 9 (Homo sapiens, UniProt Q07011) | binding, SPR | – | – | Kd | 0.053 µM
O=c1c2ccncc2[nH]c(=S)n1Cc1cccnc1 | 4'-phosphopantetheinyl transferase PptT | enzyme activity, inhibitor, FP | – | – | IC50 | 8.99 µM
COc1ncccc1-c1cnn2ccc(N3CCN(C(=O)OC(C)C)CC3)nc12 | SIK3 (Homo sapiens, UniProt Q9Y2K2) | binding, competition with immobilised ligand | – | 1 µM | remaining binding | 100%
CCCCC(CC)COC(=O)c1ccccc1C(=O)O (stereo not shown) | PPARA (Homo sapiens, UniProt Q07869) | reporter gene, agonist, luciferase | – | – | EC50 | 5.2 µM
O=c1[nH]c2cc(CO)c(Cl)cc2c(=O)n1Cc1cncnc1 | 4'-phosphopantetheinyl transferase PptT | enzyme activity, inhibitor, FP | – | – | IC50 | 53.9 µM
Nc1ncc(-c2nc(N3CCOCC3)nc(N3CCOCC3)n2)c(C(F)F)n1 | Oprk1 (Rattus norvegicus, UniProt P34975) | cell-free assay, radioligand | – | 10 µM | remaining signal | 114%
N.N.[Cl][Pt][Cl] | Z-138 | cell growth or viability, ATP luminescence | – | 10 µM, 72 h | inhibition | 100%
O=c1c2cc(Cl)ccc2[nH]c(=S)n1C(CCc1ccccc1)c1cccnc1 (stereo not shown) | 4'-phosphopantetheinyl transferase PptT | enzyme activity, inhibitor, FP | – | – | IC50 | 0.19 µM
C[C@]12CC[C@@H](O)C[C@@H]1CC[C@@H]1[C@@H]2CC[C@]2(C)C(=O)CC[C@@H]12 | CNR2 (Homo sapiens, UniProt P34972) | cAMP, agonist | – | – | EC50 | 4.67 µM
CC(C)C(=O)OCc1cc2[nH]c(=S)n(Cc3cncc(C(N)=S)c3)c(=O)c2cc1Cl | 4'-phosphopantetheinyl transferase PptT | enzyme activity, inhibitor, FP | – | – | IC50 | > 100 µM
CCCCOc1cc(C(=O)NCCN(CC)CC)c2ccccc2n1 | PKD2L1 (Homo sapiens, UniProt Q9P0L9) | ion current, inhibitor, patch clamp | – | – | IC50 | 8 µM
CSCC[C@H](NC(=O)[C@@H](N)CCCNC(=N)N)C(=O)N[C@@H](Cc1ccccc1)C(=O)NCC(=O)N1CCC[C@H]1C(=O)N1CCC[C@H]1C(=O)N[C@@H](CC(C)C)C(=O)N[C@H](C(=O)N[C@@H](Cc1ccccc1)C(=O)O)[C@@H](C)O | HLA class I histocompatibility antigen, A alpha chain | cell-free assay | – | – | IC50 | 0.099 µM
CCOC(=O)C1=C(C)NC(C)=C(C(=O)OC)C1c1cccc([N+](=O)[O-])c1 (stereo not shown) | Cacna1c (Rattus norvegicus, UniProt P22002) | ligand displacement, radioligand | – | – | Ki | 0.00022 µM
COc1cc(CCNC(C)c2ccccc2O)c(OC)cc1C#N (single isomer, unassigned; (-)) | HTR2B (Homo sapiens, UniProt P41595) | G protein activation, agonist, BRET | – | – | EC50 | 2.8 µM
[2H]c1c([2H])c([C@]2([2H])CCCN2C(=O)C(C)(C)Oc2ccc3cn[nH]c3c2)c([2H])c([2H])c1C([2H])([2H])[2H] | IRAK3 (Homo sapiens, UniProt Q9Y616) | binding, competition with immobilised ligand | – | 1 µM | remaining binding | 53%
CS(=O)(=O)c1ccc2nc(-c3ccccc3)c(Nc3ccc(C(=O)O)cc3)n2c1 | TDP1 (Homo sapiens, UniProt Q9NUW8) | enzyme activity, inhibitor, fluorescence | – | – | IC50 | 3.03 µM

Some of these lines once more:
Compound | tested on | assay | test system | setting | quantity | result
COc1ncccc1-c1cnn2ccc(N3CCN(C(=O)OC(C)C)CC3)nc12 | SIK3 (Homo sapiens, UniProt Q9Y2K2) | binding, competition with immobilised ligand | – | 1 µM | remaining binding | 100%
CCCCC(CC)COC(=O)c1ccccc1C(=O)O (stereo not shown) | PPARA (Homo sapiens, UniProt Q07869) | reporter gene, agonist, luciferase | – | – | EC50 | 5.2 µM
